Published values collected from several papers.
Each numbered part is a random draw from the data of one study; scales do not carry over between parts. Substitutions count along the parent as printed.
Sequence of UniProt O23661 (whole entry, looked up): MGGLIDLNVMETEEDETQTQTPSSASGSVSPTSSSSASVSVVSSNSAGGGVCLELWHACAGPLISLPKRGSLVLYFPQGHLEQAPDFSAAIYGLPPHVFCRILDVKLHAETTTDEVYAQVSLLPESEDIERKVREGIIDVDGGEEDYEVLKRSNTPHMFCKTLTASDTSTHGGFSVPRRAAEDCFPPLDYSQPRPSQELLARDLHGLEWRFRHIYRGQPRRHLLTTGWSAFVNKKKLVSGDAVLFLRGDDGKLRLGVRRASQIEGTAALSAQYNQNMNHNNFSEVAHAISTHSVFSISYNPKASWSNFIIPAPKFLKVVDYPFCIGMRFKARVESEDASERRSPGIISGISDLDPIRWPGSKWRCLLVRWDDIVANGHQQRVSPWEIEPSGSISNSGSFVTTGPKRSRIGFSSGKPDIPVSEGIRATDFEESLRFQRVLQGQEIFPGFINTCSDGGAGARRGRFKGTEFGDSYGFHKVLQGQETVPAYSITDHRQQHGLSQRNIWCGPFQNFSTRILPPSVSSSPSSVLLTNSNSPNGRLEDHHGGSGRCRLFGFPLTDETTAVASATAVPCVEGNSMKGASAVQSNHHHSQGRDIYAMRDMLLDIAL

Set 1 — method: RNA Bind-n-Seq; form: RNA; matrix: in vitro; concentration: 20 nM; setting: 6-mer, flanks averaged, single round; added: 150 mM LiCl; relative to: input library; reading: higher = stronger binding
Target: TAR DNA-binding protein 43, full length, His tag (TARDBP, Homo sapiens, UniProt Q13148, residues 1-414)
`GCCAUC` — result for “6-mer enrichment (R)”: 0.884.
`CCCUCU` — result for “6-mer enrichment (R)”: 1.11.
Under “6-mer enrichment (R)”, `GGGGAU` is recorded as 1.21.
`CGUUUA` — result for “6-mer enrichment (R)”: 0.977.
For `UCAAAA`, “6-mer enrichment (R)” read 0.831.
`CGAAUC` — result for “6-mer enrichment (R)”: 0.811.
`GCGCUU`: “6-mer enrichment (R)” 0.963.
Under “6-mer enrichment (R)”, `CGUAAG` is recorded as 0.864.
`GCAAAG` — result for “6-mer enrichment (R)”: 0.91.
For `AGAGAA`, “6-mer enrichment (R)” read 0.964.
For `GACGGU`, “6-mer enrichment (R)” read 0.983.
Under “6-mer enrichment (R)”, `GUUGGG` is recorded as 1.34.
Under “6-mer enrichment (R)”, `GACCAA` is recorded as 0.843.
For `ACCAAG`, “6-mer enrichment (R)” read 0.836.
`GGUCUC`: “6-mer enrichment (R)” 0.879.
Under “6-mer enrichment (R)”, `CCUCUG` is recorded as 0.928.
For `AGCAAU`, “6-mer enrichment (R)” read 0.869.
`UACGCG`: “6-mer enrichment (R)” 0.905.

Set 2 — method: protein binding microarray; form: double-stranded DNA, one strand shown; matrix: in vitro; concentration: not given; relative to: not given; reading: higher = stronger binding
Target: Histone acetyltransferase KAT6A, both winged helices, GST fusion (KAT6A, Homo sapiens, UniProt Q92794, residues 1-181)
Setting: 8-mer, flanks averaged, mean of 2 arrays, mostly near background
Construct (chain): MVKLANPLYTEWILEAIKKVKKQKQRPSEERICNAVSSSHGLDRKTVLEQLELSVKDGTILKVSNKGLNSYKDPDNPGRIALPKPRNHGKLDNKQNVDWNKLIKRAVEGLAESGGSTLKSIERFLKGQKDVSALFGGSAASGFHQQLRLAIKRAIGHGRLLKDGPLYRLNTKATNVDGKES
With `TCCCGCCA` the E-score was 0.153.
With `CTCGAGTA` the E-score was 0.012.
For `CTTAGTGA`, the E-score was -0.106.
`ACACATAC` gave an E-score of -0.17.
For `ACCTTCTC`, the E-score was -0.208.
`ATATGCCA` gave an E-score of -0.0129.
`ATTTGTGC` has an E-score of 0.0325.
For `CTGCCTAC`, the E-score was -0.107.
With `AGAGGTGC` the E-score was -0.138.
The E-score of `ATCTCGGC` is reported as 0.135.
`CAGCAGCG` gave an E-score of 0.0963.
With `CGAGTAAA` the E-score was 0.0739.
With `AGGCCTCC` the E-score was -0.148.
The E-score of `AAAGGATT` is reported as -0.158.
With `ATGACAAC` the E-score was -0.084.
For `CGCAGACA`, the E-score was 0.107.
With `TCAGACCA` the E-score was -0.25.
`CGGGATGA` has an E-score of 0.0753.
`ATGCTACA` has an E-score of -0.0838.
The E-score of `CCTAATTA` is reported as -0.127.
With `GGACCCCA` the E-score was -0.212.
With `TACGATGA` the E-score was -0.048.
`ATGTGTCC` has an E-score of 0.067.
`CTCCCCCC` has an E-score of -0.207.
With `CTTTACAC` the E-score was 0.0296.

Set 3 — target: CCNE2, cyclin fold, Cln2 fusion (human); method: yeast growth competition, sequencing; matrix: yeast; setting: strong parent motif; relative to: not given; reading: higher = stronger binding
Starting sequence: PLK5 docking peptide (human); IFRKVGQRLLTQC; partner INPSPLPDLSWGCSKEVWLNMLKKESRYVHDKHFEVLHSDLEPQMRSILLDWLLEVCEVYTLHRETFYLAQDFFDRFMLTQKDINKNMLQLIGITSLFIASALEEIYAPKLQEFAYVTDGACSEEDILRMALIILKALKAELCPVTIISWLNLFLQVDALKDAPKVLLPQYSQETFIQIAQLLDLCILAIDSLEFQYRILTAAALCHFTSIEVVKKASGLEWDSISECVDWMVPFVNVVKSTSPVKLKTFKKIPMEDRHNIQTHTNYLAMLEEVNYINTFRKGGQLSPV
`L10A`: “normalised enrichment score” 0.914.
`G6A`: “normalised enrichment score” 0.686.
`K4A` — result for “normalised enrichment score”: 0.851.
`Q12A` — result for “normalised enrichment score”: 0.967.
Under “normalised enrichment score”, `C13A` is recorded as 1.48.
Under “normalised enrichment score”, `R8A` is recorded as 1.12.
`T11A`: “normalised enrichment score” 0.546.

Set 4 — method: DHFR PCA, deep sequencing; matrix: yeast; added: (+)-ABA 0 µM; relative to: wild-type fitted maximum; reading: higher = stronger binding
Target: ABI1, truncated, D143A, DHFR fusion (Arabidopsis thaliana)
Setting: methotrexate growth selection, single substitutions
Starting sequence: PYL1, truncated, DHFR fusion (Arabidopsis thaliana); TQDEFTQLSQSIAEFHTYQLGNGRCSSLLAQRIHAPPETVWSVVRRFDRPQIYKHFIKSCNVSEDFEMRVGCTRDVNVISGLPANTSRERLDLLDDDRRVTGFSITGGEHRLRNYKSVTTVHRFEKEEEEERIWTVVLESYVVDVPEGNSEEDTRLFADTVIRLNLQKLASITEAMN; partner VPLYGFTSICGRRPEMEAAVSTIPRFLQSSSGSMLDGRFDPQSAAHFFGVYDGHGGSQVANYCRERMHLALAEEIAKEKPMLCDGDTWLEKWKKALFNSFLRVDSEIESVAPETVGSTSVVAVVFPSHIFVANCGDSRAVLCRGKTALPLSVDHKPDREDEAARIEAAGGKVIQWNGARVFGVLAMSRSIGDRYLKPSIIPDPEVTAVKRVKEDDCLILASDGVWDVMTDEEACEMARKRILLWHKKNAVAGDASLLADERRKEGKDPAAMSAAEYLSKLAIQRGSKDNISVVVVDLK
For `L28D`, “relative binding score” read -4.02%.
`S42G`: “relative binding score” 22.4%.
`T160Q`: “relative binding score” -3.27%.
`F15L` — result for “relative binding score”: 2.5%.
For `E67D`, “relative binding score” read 20.2%.
For `T173K`, “relative binding score” read -1.48%.
For `N149C`, “relative binding score” read 61.2%.
`C60Q`: “relative binding score” 1.07%.
For `R24G`, “relative binding score” read 4.76%.
Under “relative binding score”, `S117Q` is recorded as 4.12%.
Under “relative binding score”, `S11E` is recorded as 40%.
Under “relative binding score”, `T119Y` is recorded as -7.3%.
`Q19Y`: “relative binding score” 4.41%.
Under “relative binding score”, `G81D` is recorded as 6.52%.
`P50N`: “relative binding score” -3.2%.
Under “relative binding score”, `V44Q` is recorded as -2.33%.
For `I105Q`, “relative binding score” read -0.515%.
`T173F`: “relative binding score” -9.42%.
`T160N`: “relative binding score” -1.78%.
`E131N` — result for “relative binding score”: 46.4%.
`S150A`: “relative binding score” 14.3%.
`R69Y` — result for “relative binding score”: 7.42%.

Set 5 — target: JUNB, bZIP domain (human); method: DHFR protein complementation; matrix: yeast; relative to: wild-type JUN-FOS pair; reading: higher = stronger binding
Setting: single substitutions, most at no-binding floor
Starting sequence: JUN, bZIP domain (human); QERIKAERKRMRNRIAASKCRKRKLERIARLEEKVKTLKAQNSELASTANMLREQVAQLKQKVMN; partner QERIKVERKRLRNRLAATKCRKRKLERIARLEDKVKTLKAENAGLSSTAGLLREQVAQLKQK
With `E54A` the binding fitness was -1.22 natural log.
`A49Q` has a binding fitness of -1.35 natural log.
`A57T` gave a binding fitness of -1.26 natural log.
`V35H` has a binding fitness of -1.49 natural log.
`M51N` gave a binding fitness of -1.2 natural log.
For `E33R`, the binding fitness was -1.27 natural log.
`Q58P` has a binding fitness of -1.49 natural log.
For `Q55N`, the binding fitness was -1.49 natural log.
`T48V` gave a binding fitness of -1.1 natural log.
The binding fitness of `L31C` is reported as -1.41 natural log.
The binding fitness of `A46I` is reported as -0.927 natural log.
With `A29H` the binding fitness was -1.06 natural log.
For `L45N`, the binding fitness was -1.52 natural log.
`A29E` gave a binding fitness of -1.27 natural log.
For `L38Q`, the binding fitness was -1.51 natural log.
With `Q55I` the binding fitness was -1.31 natural log.
For `L45S`, the binding fitness was -1.61 natural log.
The binding fitness of `Q41E` is reported as -0.953 natural log.
For `R30C`, the binding fitness was -1.26 natural log.
With `K36M` the binding fitness was -1.22 natural log.
`A29G` gave a binding fitness of -1.24 natural log.
`E32F` has a binding fitness of -1.46 natural log.
The binding fitness of `K39M` is reported as -0.983 natural log.
With `K34V` the binding fitness was -0.961 natural log.
`A46V` gave a binding fitness of -1.05 natural log.

Set 6 — method: RNA Bind-n-Seq; form: RNA; matrix: in vitro; concentration: 365 nM; relative to: no-protein control; reading: higher = stronger binding
Target: RNA binding protein fox-1 homolog 2, RRM domain, GST-SBP tag (RBFOX2, Homo sapiens, UniProt O43251-10, residues 100-194)
Setting: natural RNA segment, single round, ends assumed
Target sequence (chain): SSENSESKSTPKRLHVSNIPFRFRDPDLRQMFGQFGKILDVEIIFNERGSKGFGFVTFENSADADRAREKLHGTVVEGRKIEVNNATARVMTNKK
`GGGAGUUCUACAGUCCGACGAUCUCAUAUUAGAUUCAUUAUUGAAAAAAAGUCAUCAAGUCAAUUUUAUGUGUCAAAAAUUAUUUCACUUGUAUGUGACUAUUAUCUUAACUUGUAACAAUUUAUGUUUUACAUGGAAUUCUCGGGUGCCAA` — result for “RBNS enrichment (R)”: 0.843.
For `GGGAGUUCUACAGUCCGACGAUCAACUGAUCUCCCCCACCCUUGGAUUAGAGUUCCUGCUCUACCUUACCCACAGAUAACACAUGUUGUUUCUACUUGUAAAUGUAAAGUCUUUAAAAUAAACUAUUACAGAUUGGAAUUCUCGGGUGCCAA`, “RBNS enrichment (R)” read 0.233.
`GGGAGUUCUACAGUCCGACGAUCGUAGCACAUGGUUUAAAUAUGAAUGACUGAACUUGUGAUCUAGUCCUUGUCUGGUAAUUGUGGAUUAAUGUCAGCGUUAAUCAGCCCCUCAAAGGGAGAGAAAAGCUGGGUGGAAUUCUCGGGUGCCAA`: “RBNS enrichment (R)” 2.68.
`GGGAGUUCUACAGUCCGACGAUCUAGACUGGAGAGCAGGGCCUCUCUUGGGAAGGACACAAGGCGGGCAAGGCUGCUGGCAGACUUCUCCACUGACCUGAGUGUGCUUUUUUUUUCCCCUAAAUGUAUUGCAUUGGAAUUCUCGGGUGCCAA`: “RBNS enrichment (R)” 1.06.
For `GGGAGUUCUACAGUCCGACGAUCGCACAAAUACGUCUGUGUGGGACAGUCCACUGAACGUCGUCAUUUAGUCCAGCCCAUUGCAGGCAUUCCUGGAACAGGUGAGAGGGUUUCUACUUCCCAUGAAGUAUAUAUGGAAUUCUCGGGUGCCAA`, “RBNS enrichment (R)” read 1.45.
`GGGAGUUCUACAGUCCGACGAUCUAUGUUAUAUAACAUUCAAAAAGAAUUUUUUUCUUGAUUGAGAAAAGGAUACAAAAUGCAAAAUCCACAAUUUUGAUAACUGAAAAUUGCCAAUUGUUUUGCAGUACUUUUGGAAUUCUCGGGUGCCAA`: “RBNS enrichment (R)” 0.554.
`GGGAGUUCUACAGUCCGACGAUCGCUUUUUCUUCUCUCCCUCUAUGAAUUCUUAUAAUGUCCCUUUUUCUGUAAGUUUUUGAGAGGCAAUUGGCAAUUUAGGAGGCAGCAGGGUCUGUUUUGGUCAAAUCUUGUGGAAUUCUCGGGUGCCAA` — result for “RBNS enrichment (R)”: 0.466.
`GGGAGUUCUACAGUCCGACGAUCCUCUGUGCUGACCUUAUUCUUGGGGAAGGGAACAGAUUUUGACCUAGAUCAAGUGUAACUUAGGUCCUCACCCUUGGGACGACCUUGCCUUUUCUGCCUUGAGGGGCAGUUGGAAUUCUCGGGUGCCAA`: “RBNS enrichment (R)” 0.297.

Single results of other studies
B1: IAA33 (Arabidopsis thaliana, UniProt Q9FKM7); chain MNSFEPQSQDSLQRRFHQDNSTTQQPRDTTTPFIPKPASKNHNNSNSSSGAAGRSFQGFGLNVEDDLVSSVVPPVTVVLEGRSICQRISLDKHGSYQSLASALRQMFVDGADSTDDLDLSNAIPGHLIAYEDMENDLLLAGDLTWKDFVRVAKRIRILPVKGNTRQVKRNE
For `B1 (IAA33)`, the positive tests was 1 (ETT (Arabidopsis thaliana, UniProt O23661); two-hybrid; relative to: out of 4 tests, higher = firmer interaction).

Some of these lines once more (set 5):
The binding fitness of `L31C` is reported as -1.41 natural log.
The binding fitness of `A46I` is reported as -0.927 natural log.
With `A29H` the binding fitness was -1.06 natural log.
For `L45N`, the binding fitness was -1.52 natural log.
`A29E` gave a binding fitness of -1.27 natural log.
For `L38Q`, the binding fitness was -1.51 natural log.
With `Q55I` the binding fitness was -1.31 natural log.
For `L45S`, the binding fitness was -1.61 natural log.
The binding fitness of `Q41E` is reported as -0.953 natural log.
